{"data": "Published values of several laboratories", "note": "Every numbered part comes from another study and shows a few of its results, in no order. Positions count from the first letter of the parent shown."}
{"data": "Sample 1", "target": "CREB5, bZIP domain (human)", "method": "DHFR protein complementation", "sample": "yeast", "setting": "single substitutions, most at no-binding floor", "reference": "wild-type JUN-FOS pair", "direction": "higher = stronger binding", "starting sequence": "JUN, bZIP domain (human); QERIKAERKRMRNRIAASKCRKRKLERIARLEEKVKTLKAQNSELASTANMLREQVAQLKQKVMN; partner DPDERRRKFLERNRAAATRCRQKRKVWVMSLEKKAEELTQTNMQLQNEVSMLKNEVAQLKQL"}
{"Variant": "S47Y", "binding fitness [natural log]": -0.406}
{"Variant": "L52N", "binding fitness [natural log]": -0.854}
{"Variant": "E32A", "binding fitness [natural log]": -0.203}
{"Variant": "Q58T", "binding fitness [natural log]": -0.268}
{"Variant": "M51Q", "binding fitness [natural log]": -0.211}
{"Variant": "T37F", "binding fitness [natural log]": -0.216}
{"Variant": "I28Q", "binding fitness [natural log]": -0.267}
{"Variant": "K36R", "binding fitness [natural log]": -0.221}
{"Variant": "V56P", "binding fitness [natural log]": -1.42}
{"Variant": "A40I", "binding fitness [natural log]": -0.399}
{"Variant": "T48A", "binding fitness [natural log]": -0.361}
{"Variant": "N42W", "binding fitness [natural log]": -1.07}
{"Variant": "A57D", "binding fitness [natural log]": -0.329}
{"Variant": "T37M", "binding fitness [natural log]": 0.229}
{"Variant": "S47N", "binding fitness [natural log]": -0.246}
{"Variant": "L52E", "binding fitness [natural log]": -1.4}
{"Variant": "Q58F", "binding fitness [natural log]": -0.588}
{"Variant": "Q55M", "binding fitness [natural log]": -0.499}
{"Variant": "K34Q", "binding fitness [natural log]": -0.426}
{"Variant": "V56C", "binding fitness [natural log]": -0.673}
{"Variant": "L45C", "binding fitness [natural log]": -1.32}
{"Variant": "M51E", "binding fitness [natural log]": -0.235}
{"Variant": "T37K", "binding fitness [natural log]": -0.239}
{"Variant": "Q55S", "binding fitness [natural log]": -0.761}
{"Variant": "N42A", "binding fitness [natural log]": -0.925}
{"data": "Sample 2", "target": "RING finger protein unkempt homolog, zinc fingers 1-6, GST-SBP tag (UNK, Homo sapiens, UniProt Q9C0B0, residues 30-357)", "method": "RNA Bind-n-Seq", "form": "RNA", "sample": "in vitro", "concentration": "not given", "setting": "RNA with constant flanks, ends assumed", "reference": "input RNA pool", "direction": "higher = stronger binding", "shared flanks, not repeated": "GGGAGUUCUACAGUCCGACGAUC … CAACAGAGGAUUGAGCAUCA", "UniProt Q9C0B0, sequence (30-357, looked up)": "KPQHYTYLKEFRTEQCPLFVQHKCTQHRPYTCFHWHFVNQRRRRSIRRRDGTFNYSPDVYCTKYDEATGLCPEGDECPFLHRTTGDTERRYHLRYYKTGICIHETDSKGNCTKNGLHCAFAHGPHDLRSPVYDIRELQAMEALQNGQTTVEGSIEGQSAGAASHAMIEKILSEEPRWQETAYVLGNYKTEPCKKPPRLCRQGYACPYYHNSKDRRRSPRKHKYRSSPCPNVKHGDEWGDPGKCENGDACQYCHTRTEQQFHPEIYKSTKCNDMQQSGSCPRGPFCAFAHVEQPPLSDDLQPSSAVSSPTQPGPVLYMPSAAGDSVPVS"}
{"Strand": "UGGGCAUCCUCUCUGGGGAGCUGCUGGCCGCUUAGCGUUGUUUGAUUUUUGACCUUGACACCGCCGACCGGCUUGUGGUUUUUUUAAUUUAAAGAUAUUAAGACUUAAUUCACUAAAAUU", "bound/input enrichment": "0.594 ratio"}
{"Strand": "AGCCUGGGCAUUUCUGCAUUUGUGCCAGCUAACACUACAAAAUAGACUUAAUUAGAGAAAUUCCGACCCAGAAUUGCAGCUUCAACAACACAAAACAGGAAAGCUAGAAGAGGUUGCUGU", "bound/input enrichment": "5.97 ratio"}
{"Strand": "GAUUCAUUGCCUGCUUUACUGGAAUUCUACAAAAUACACUAUUUGGACACUACAACAUUGACCGAACCAGUGGCCAGAUCAAGGCAGGGUAGUGGAGUGAUUCUCAGGCAGGAGGAGGCA", "bound/input enrichment": "0.29 ratio"}
{"Strand": "AAUGCAUCUCUUCAAGACCAUAUUUAUCCGAGCUGUUUUGGGAAUACUCCAGAGUGGAACCGUUCUAAAUUUAUAAGUCUUUGGGGAUCAGAAGUGAUGAAUGAUAAGAACUGGAAUCCU", "bound/input enrichment": "0.307 ratio"}
{"Strand": "UCGGUCUUCAAUAACAAGAACAGUGGCUUCUGGCACAGCAGCCUCAUUGACCGGAACCUCACCGAUUAUUUUGUCCCCUUCCUGCCCCUGGAGUACAAGCACCUGAAAAUGUGCAUCAGA", "bound/input enrichment": "0.177 ratio"}
{"Strand": "UUUCCAGACCAAGGAUACAGAGGCCGAGGCAGAGGCGAGUAUUACUCCAGAGGUCGGAGCUACCGAGGCUCUUAUGGGGGUCGUGGCAGAGGUGGUAGAGGGCACACUCGUGAGUAUCCU", "bound/input enrichment": "0.256 ratio"}
{"Strand": "GCAAAUUUUGCCAGGAACGAUGGAAAUUGUAUUCAUAUGGUAGACAAUGGGAUUGCCGAAAAACUCAUGGAUUUGCUGGACAGACACGUAGAAGACGGGAACGUGACGGUGCAGCACGCC", "bound/input enrichment": "0.161 ratio"}
{"Strand": "UUUCCGAUCUUGUCCCCCUGCCCUUCCCUCGUAGUCUCUGCAUUUCUCCCCCAAGGUGGCAUCCGCAGGCUUGAGGCUCCCAGGGGAUAGGAACGCCUGGCCUGGCGUGCUUAGCACCGC", "bound/input enrichment": "0.202 ratio"}
{"data": "Sample 3", "target": "RNA binding protein fox-1 homolog 2, RRM domain, GST-SBP tag (RBFOX2, Homo sapiens, UniProt O43251-10, residues 100-194)", "method": "RNA Bind-n-Seq", "form": "RNA", "sample": "in vitro", "concentration": "365 nM", "setting": "natural RNA segment, single round, ends assumed", "reference": "no-protein control", "direction": "higher = stronger binding", "shared flanks, not repeated": "GGGAGUUCUACAGUCCGACGAUC … UGGAAUUCUCGGGUGCCAA", "Construct (chain)": "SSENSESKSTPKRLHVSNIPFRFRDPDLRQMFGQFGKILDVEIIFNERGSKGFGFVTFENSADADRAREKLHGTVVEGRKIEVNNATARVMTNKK"}
{"Strand": "GAUCAGAAUAAUUAUCACAGGAACUUAAAUGUUAAGCCAUUAGCAUAGAAAAACUGUUCUCAGUUUUAUUUUUACCUAACACUAACAUGAGUAACCUAAGGGAAGUGCUG", "RBNS enrichment (R)": 0.35}
{"Strand": "UGUAAAUUAAAAAUGCUUUAGUUUACCUGGCAUUUGGGUAUGCUCAGUAAUGCCUGCCAGCAGCACCUUUAAUUUCAGCUGGUGGCCUGUGAUGGGUUCUGUUUACCUUU", "RBNS enrichment (R)": 0.376}
{"Strand": "CACAGGCUACAUGCACACACUGACAACUACCAAUAAACAGACAGGGGAAGGUCUUUCAUCUCAGCCAUUUUCUCUUCCCCCCGCCCCCCCUUAGAUGGAGUCUUGCUCUG", "RBNS enrichment (R)": 1.07}
{"Strand": "CAUUUGACUGGUUUGCCCUGGAAUCCACUGCACCUUUACACUGCACCAUGAAACCUACACUCCCUGGUAUCAUAGCGCGUCAUCACCUCAACAAGUCAGUCGUCUCCAUU", "RBNS enrichment (R)": 0.994}
{"Strand": "GUACCCGAGAGGCUAGCUAUUUAAGGGAACACAGAGGUAAAUUCUUUUGUAAAGAAUCCUUUUGUAAUGCAAACCAAUUAUCCCUGAAGGUAUCUGUUUUGUAAGUUUGG", "RBNS enrichment (R)": 0.452}
{"Strand": "UUCAGAUUAAUGUUCUACUACUUGUGACUGAGAAAAGUUUAAUGCCGGCAUGGUAAAAGGAAGCUGUCUCCCUUCUGACAUUUCCUAGGAAGCUAGGAAAAGGAAAGUGA", "RBNS enrichment (R)": 0.501}
{"Strand": "AGUGCCUUCUGUCUGCUCGUUAGCUUUAAUCAAUCAUGCCCUGCCUUGUCCCUCUCACUCCCCAGCCCCACCCCUAAGUGCCCAAAGUGGGGAGGGACAAGGGAUUCUGG", "RBNS enrichment (R)": 0.488}
{"Strand": "GCUCUACGCGGCCCUGCCUGAGAGGCUCUACGUGAUACAGGAGGGCAGGAUCUGCUACAAGGGUAAAGCUGGCCCUUGGAACUACAAUCCUGAGGAAGUCCGAGCUGUCC", "RBNS enrichment (R)": 0.295}
{"data": "Sample 4", "target": "Histone acetyltransferase KAT6A, both winged helices, GST fusion (KAT6A, Homo sapiens, UniProt Q92794, residues 1-181)", "method": "protein binding microarray", "form": "double-stranded DNA, one strand shown", "sample": "in vitro", "concentration": "not given", "setting": "8-mer, flanks averaged, mean of 2 arrays, mostly near background", "reference": "not given", "direction": "higher = stronger binding", "Construct (chain)": "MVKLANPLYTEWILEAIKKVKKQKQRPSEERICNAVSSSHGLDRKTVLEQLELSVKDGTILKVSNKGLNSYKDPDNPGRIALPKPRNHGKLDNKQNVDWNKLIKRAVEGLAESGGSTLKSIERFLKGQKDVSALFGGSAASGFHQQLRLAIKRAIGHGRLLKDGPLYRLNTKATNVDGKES"}
{"Strand": "GCAGCAGA", "E-score": -0.134}
{"Strand": "AAATCGTC", "E-score": 0.0111}
{"Strand": "ATCCGGGA", "E-score": -0.0607}
{"Strand": "AGCCAGCG", "E-score": 0.0437}
{"Strand": "AGAGTACC", "E-score": 0.0145}
{"Strand": "AGGTGGTC", "E-score": -0.165}
{"Strand": "AACGACGC", "E-score": 0.115}
{"Strand": "ATAGGTCC", "E-score": -0.0466}
{"Strand": "TAGAAACA", "E-score": -0.0632}
{"Strand": "ATTCAGTG", "E-score": -0.155}
{"Strand": "AGAACCAT", "E-score": -0.0854}
{"Strand": "TCCGATCA", "E-score": 0.0554}
{"Strand": "GTCAGACA", "E-score": 0.0772}
{"Strand": "TCCCACGA", "E-score": -0.166}
{"Strand": "CTGCAATC", "E-score": -0.0255}
{"Strand": "GGCCGAGA", "E-score": 0.135}
{"Strand": "ACGAGGAG", "E-score": -0.263}
{"Strand": "GCTTGTAC", "E-score": 0.0318}
{"Strand": "ACGATCCA", "E-score": -0.14}
{"Strand": "AGTCCCCA", "E-score": -0.27}
{"Strand": "CGAAGACA", "E-score": 0.0996}
{"Strand": "ATAGCAAG", "E-score": -0.12}
